Published values gathered from unrelated publications.
Every numbered part comes from another study and shows a few of its results, in no order. Positions count from the first letter of the parent shown.

Study 1
Target: Ras GTPase-activating protein-binding protein 1, C-terminal RGG region (G3BP1, Homo sapiens, UniProt Q13283)
UniProt Q13283, sequence (whole entry, looked up): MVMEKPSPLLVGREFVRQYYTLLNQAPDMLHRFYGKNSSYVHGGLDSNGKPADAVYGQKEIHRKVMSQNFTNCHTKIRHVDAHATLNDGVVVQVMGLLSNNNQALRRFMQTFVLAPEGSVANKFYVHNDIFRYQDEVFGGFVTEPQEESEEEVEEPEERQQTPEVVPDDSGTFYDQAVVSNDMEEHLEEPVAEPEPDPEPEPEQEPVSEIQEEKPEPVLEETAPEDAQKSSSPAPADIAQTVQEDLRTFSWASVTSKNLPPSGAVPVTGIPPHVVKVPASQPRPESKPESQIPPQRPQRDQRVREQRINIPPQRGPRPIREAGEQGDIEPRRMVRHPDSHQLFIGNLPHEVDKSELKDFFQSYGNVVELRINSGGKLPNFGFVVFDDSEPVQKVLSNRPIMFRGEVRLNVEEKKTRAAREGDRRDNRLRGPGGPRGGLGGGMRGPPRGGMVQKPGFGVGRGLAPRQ
Method: RNA Bind-n-Seq
Form: RNA
Sample: in vitro
Tested at: 1 µM
Setting: whole 134-nt RNA, ends assumed
With: 150 mM KCl
Relative to: input library
Direction: higher = stronger binding
Measurement: log2 enrichment
Shared flanks, not repeated: GGGAGUUCUACAGUCCGACGAUC … UGGAAUUCUCGGGUGUCAAGG
UCCUGUGCUACACAUCGUAUGUACCGAAUCAAAUUUUUAAACCCCCAAACCCCCCCAAAAAAGUAUUAUGUUACGCCGUUCGGAUCUGCA: -0.579
UAACUUUAGAGGAGGAUCUGAUGGAUAUGGCAGUGGACGUGGAUUUGGGGAUGGCUAGAAUGGGUAUGGAGGAGGACCUGGAGGUGGCAA: -0.138
AGUCCUGUGCUACACAUCGUAUGUACCGAAUCGGGGAAAAGGAAAAGGGGAAAAGGGAAAGUAUUAUGUUACGCCGUUCGGAUCUGCACU: -0.752
AAGUCCUGUGCUACACAUCGUAUGUACCGAAUCGGAAAAAAAGGUGGUUUUUUUGGAAAGUAUUAUGUUACGCCGUUCGGAUCUGCACUU: -2.04
ACCAUGCAGGUGGGCAUCUUUGGGAAGUGGGGCAAGGGGGGGAUAGGGAGGGGGGUAACUCUUUGGGAACAGGUGGUCCCAGGUCGUUUC: 2.31
CCUCAAGUCCUGUGCUACACAUCGUAUGUACCGAAUCGGGGUGGUGGGUGGGGAAAGUAUUAUGUUACGCCGUUCGGAUCUGCACUUCCA: 0.8
UAACUUUAGAGGAGGAUCUGAUGGAUAUGGCAGUGGACGUGGAUUUGGGGAUGGCGAUAAUGGGUAUGGAGGAGGACCUGGAGGUGGCAA: -1.14
CUCAAGUCCUGUGCUACACAUCGUAUGUACCGAAUCGGCCGGGCCGGGGCCGGGAAAGUAUUAUGUUACGCCGUUCGGAUCUGCACUUCC: -1.07
CCUGUGCUACACAUCGUAUGUACCGAAUCGGAAAAAAGGGAAAAAAGGGGAAAAAAGGGGAAAGUAUUAUGUUACGCCGUUCGGAUCUGC: -1.63
UAACUUUAGAGGAGGAUCUGAUGGAUAUGGCAGUGGUCGUGGAUUUGGGGAUGGCUAUAAUGGGUAUGGAGGAGGACCUGGAGGUGGCAA: -0.533
GCUGGAAGUAAAAACAAAUGGAAAUGCUUCGGAUAGUGGCAGGGGUGGGGGUUGCUAAGGAAAGGGUGGGAUGGGAGUGGGUAAAGAGUU: 2.48
UGGGAGGUGGAUUUUGUUUAUUUUUUUAGCUCAUUUCCAGGGGUGGGAAUUUUUUUUUAAUAUGUGUCAUGAAUAUAGUUGUUUUUGAAA: 2.87
UUGACUAUAUUGUGGAGUAUGACUAUGAUGCUGUACAUGAUGAUGAAUUAACUAUUCGAGUUGGAGAAAUCAUCAGGAAUGUGAAAAAGC: -2.16
UCUGCUAAAGAGAAAGGAAAAUUUGAAGAUAUGGCAAAAGCGGACAAGGCCCGUUAUGAAAGAGAAAUGAAAACCUAUAUCCCUCCCAAA: -0.529

Study 2
Target: Interferon regulatory factor 7, full length, phosphomimetic (IRF7, Homo sapiens, UniProt Q92985, residues 1-503, S471D/S472D/S475D/S476D/S477D/S483D/S484D/S487D)
UniProt Q92985, sequence (whole entry, unmodified, looked up): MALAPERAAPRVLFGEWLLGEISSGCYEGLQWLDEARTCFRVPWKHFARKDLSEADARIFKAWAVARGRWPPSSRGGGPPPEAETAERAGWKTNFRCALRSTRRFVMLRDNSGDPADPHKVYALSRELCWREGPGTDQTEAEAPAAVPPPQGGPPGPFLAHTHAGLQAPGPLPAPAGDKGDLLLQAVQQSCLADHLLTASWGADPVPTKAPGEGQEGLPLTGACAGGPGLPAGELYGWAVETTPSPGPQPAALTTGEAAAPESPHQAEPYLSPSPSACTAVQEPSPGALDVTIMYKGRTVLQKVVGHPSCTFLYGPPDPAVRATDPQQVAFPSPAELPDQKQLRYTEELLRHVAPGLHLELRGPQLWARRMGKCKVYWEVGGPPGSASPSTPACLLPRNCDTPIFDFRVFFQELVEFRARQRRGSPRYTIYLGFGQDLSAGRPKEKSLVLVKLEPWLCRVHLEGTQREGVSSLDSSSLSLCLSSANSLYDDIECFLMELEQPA
Method: protein-binding microarray
Form: double-stranded DNA, one strand shown
Sample: in vitro
Tested at: 2200 nM top
Setting: 60-bp whole probe
With: salmon DNA 0.4 mg/ml
Relative to: random background probes
Direction: higher = stronger binding
Measurement: fitted relative affinity
Shared flanks, not repeated: GCCTAGCAC … GTCTTGATTCGCTTGACGCTGCTG
TTAGGACCGGACTATCGGTTAGTGCTA: -0.448 z-score
GACGGATTCGACTATCGGGACGTGCTA: 0.489 z-score
GTAGTTTTCATTATTGTTTCGTGCTAG: 2.83 z-score
ATTTAAAACAACTTTCAAAGGGTGCTA: -1.08 z-score
AAAATGATTTTTTTCATATAGTGCTAG: -0.381 z-score
GACGGTTTCGGGATCGGGACGTGCTAG: 6.06 z-score
TTAGATCTCAGACTGGATAAGTGCTAG: -0.304 z-score
TTAGGTATCCTACTGCTTCAGTGCTAG: 0.74 z-score
TCAAAGATCATTCTCACACTGTGCTAG: 0.32 z-score
GACGGACTGGGGTTTAGGGACGTGCTA: -0.923 z-score
GACGGTTACGGTCTCGGGACGTGCTAG: -0.0313 z-score
GACGGTCTCCTACTGCTGGCGTGCTAG: 0.322 z-score
TTTGATTTCAGTATCGATTAGTGCTAG: 1.47 z-score
TCAAATTTTTGCATCGTACTGTGCTAG: 1.1 z-score
TCATCCTTCTGACATCAAACTGTGCTA: 1.47 z-score
TCACGTCTGGGTGTTTTACTGTGCTAG: 0.796 z-score
TTAGAACTGAGTCTCGCTTAGTGCTAG: -0.222 z-score
TTAGGTCTCGGTATCGGTTCGTGCTAG: 1.49 z-score
CTTGCTTTGTGCCTAGCCTTGTGCTAG: 0.649 z-score
TCAAAAATCTCAATGGGACTGTGCTAG: -0.72 z-score
ACGCATGTGGGTTCCATCATGTGCTAG: 0.497 z-score
TTAGGTATCGACTTTCGGTTGGTGCTA: 7.88 z-score
TCATTCTCCTATTTAAGACTGTGCTAG: 2.18 z-score
TTAGATCACAGTCTCGATTAGTGCTAG: 0.477 z-score
GCATTTTTCTAACCCATTGAGTGCTAG: 1.41 z-score

Study 3
Target: CEBPB, bZIP domain (human)
Method: DHFR protein complementation
Sample: yeast
Setting: single substitutions, most at no-binding floor
Relative to: wild-type JUN-FOS pair
Direction: higher = stronger binding
Measurement: binding fitness
Parent: JUN, bZIP domain (human); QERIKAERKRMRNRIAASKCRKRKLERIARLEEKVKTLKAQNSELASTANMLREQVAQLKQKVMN; partner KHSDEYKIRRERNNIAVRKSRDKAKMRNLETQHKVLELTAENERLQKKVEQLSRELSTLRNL
K39V: -1.29 natural log
A46W: -1.43 natural log
N42K: -1.5 natural log
M51V: -1.32 natural log
R53G: -1.28 natural log
T48R: -1.05 natural log
A57P: -1.48 natural log
N42G: -1.5 natural log
K36V: -1.37 natural log
L31D: -1.36 natural log
E32S: -1.28 natural log
I28R: -1.13 natural log
T37K: -1.36 natural log
S47C: -1.35 natural log
I28L: -1.23 natural log
E54Q: -1.46 natural log
A29E: -1.24 natural log
R30W: -1.35 natural log
L45H: -1.56 natural log
T37P: -1.5 natural log
S43W: -1.38 natural log
I28Q: -0.851 natural log
L52I: -1.44 natural log
K36I: -1.43 natural log

Study 4
Target: Histone acetyltransferase KAT6A, winged helix 2, GST fusion (KAT6A, Homo sapiens, UniProt Q92794, residues 85-181)
Method: protein binding microarray
Form: double-stranded DNA, one strand shown
Sample: in vitro
Tested at: not given
Setting: 8-mer, flanks averaged, mean of 2 arrays, mostly near background
Relative to: not given
Direction: higher = stronger binding
Measurement: E-score
Target sequence (chain): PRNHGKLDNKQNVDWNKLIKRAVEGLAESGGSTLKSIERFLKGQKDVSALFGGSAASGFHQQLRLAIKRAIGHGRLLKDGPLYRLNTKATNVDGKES
AAATGTCA: -0.0306
ATTGGGGA: -0.0347
CGTGGTGA: -0.156
CGGTTTAG: 0.146
CCTTCGGA: 0.24
AAGTACTT: -0.229
CCTAATAC: -0.137
ACTCCTGG: -0.134
CCGTACAC: -0.133
ACTTCTCG: -0.0419
CGGATTTA: 0.0251
GAGTTTAA: 0.114
AATTATTC: 0.012
TACTGAGA: -0.186
AAGAACAT: 0.0684
ATGAAATG: -0.0161
ACTGCCAA: -0.041
AATACTAT: -0.0304
ACAGAGAT: -0.019
CTCCAGGA: 0.0326
GCCTCCTA: -0.111

Study 5
Target: Sal-like protein 4, full length isoform B (SALL4, Homo sapiens, UniProt Q9UJQ4-2, residues 1-616)
Method: universal PBM
Form: double-stranded DNA, one strand shown
Sample: in vitro
Tested at: not given
Setting: 8-mer, flanks averaged, mean of replicates
Direction: higher = stronger binding
Measurement: E-score
ATCACGGA: 0.0993
AATTCCAG: -0.0709
AATTCGAC: -0.0986
ACGTGAAC: -0.171
ACCGCGAA: -0.195
TGAGCTCA: -0.246
AGTGCGCA: -0.143
AAACTACA: 0.12
AGACGTCT: -0.0417
CTGGATCC: -0.0828
CATGCCGC: -0.0943
ATAGTGCA: 0.212
CGATCCAC: -0.104
AGGCGAAG: -0.0727
AATCTCGT: 0.0348
AAGCGTAT: 0.00841
CCGAAGCA: -0.00519
CGATGTGC: -0.199
GGTACAAA: 0.198
GGAATGCA: 0.056
GAGTCTGA: -0.246
GATTAGGA: 0.0543
ACTGGAAT: -0.0617
GGGCTGAA: -0.22
CTGTGACA: -0.0977

Excerpt of the above (study 1):
UCCUGUGCUACACAUCGUAUGUACCGAAUCAAAUUUUUAAACCCCCAAACCCCCCCAAAAAAGUAUUAUGUUACGCCGUUCGGAUCUGCA: -0.579
UAACUUUAGAGGAGGAUCUGAUGGAUAUGGCAGUGGACGUGGAUUUGGGGAUGGCUAGAAUGGGUAUGGAGGAGGACCUGGAGGUGGCAA: -0.138
AGUCCUGUGCUACACAUCGUAUGUACCGAAUCGGGGAAAAGGAAAAGGGGAAAAGGGAAAGUAUUAUGUUACGCCGUUCGGAUCUGCACU: -0.752
AAGUCCUGUGCUACACAUCGUAUGUACCGAAUCGGAAAAAAAGGUGGUUUUUUUGGAAAGUAUUAUGUUACGCCGUUCGGAUCUGCACUU: -2.04
ACCAUGCAGGUGGGCAUCUUUGGGAAGUGGGGCAAGGGGGGGAUAGGGAGGGGGGUAACUCUUUGGGAACAGGUGGUCCCAGGUCGUUUC: 2.31
CCUCAAGUCCUGUGCUACACAUCGUAUGUACCGAAUCGGGGUGGUGGGUGGGGAAAGUAUUAUGUUACGCCGUUCGGAUCUGCACUUCCA: 0.8
UAACUUUAGAGGAGGAUCUGAUGGAUAUGGCAGUGGACGUGGAUUUGGGGAUGGCGAUAAUGGGUAUGGAGGAGGACCUGGAGGUGGCAA: -1.14
CUCAAGUCCUGUGCUACACAUCGUAUGUACCGAAUCGGCCGGGCCGGGGCCGGGAAAGUAUUAUGUUACGCCGUUCGGAUCUGCACUUCC: -1.07
CCUGUGCUACACAUCGUAUGUACCGAAUCGGAAAAAAGGGAAAAAAGGGGAAAAAAGGGGAAAGUAUUAUGUUACGCCGUUCGGAUCUGC: -1.63
UAACUUUAGAGGAGGAUCUGAUGGAUAUGGCAGUGGUCGUGGAUUUGGGGAUGGCUAUAAUGGGUAUGGAGGAGGACCUGGAGGUGGCAA: -0.533
GCUGGAAGUAAAAACAAAUGGAAAUGCUUCGGAUAGUGGCAGGGGUGGGGGUUGCUAAGGAAAGGGUGGGAUGGGAGUGGGUAAAGAGUU: 2.48
UGGGAGGUGGAUUUUGUUUAUUUUUUUAGCUCAUUUCCAGGGGUGGGAAUUUUUUUUUAAUAUGUGUCAUGAAUAUAGUUGUUUUUGAAA: 2.87
UUGACUAUAUUGUGGAGUAUGACUAUGAUGCUGUACAUGAUGAUGAAUUAACUAUUCGAGUUGGAGAAAUCAUCAGGAAUGUGAAAAAGC: -2.16
UCUGCUAAAGAGAAAGGAAAAUUUGAAGAUAUGGCAAAAGCGGACAAGGCCCGUUAUGAAAGAGAAAUGAAAACCUAUAUCCCUCCCAAA: -0.529
